Published values from different studies.
Parts stem from different laboratories: compare values within a part only. Substitutions count along the parent as printed.

Study 1
Target: Interferon regulatory factor 5, full length, phosphomimetic (IRF5, Homo sapiens, UniProt Q13568-2, residues 1-514, K96S/S451D/S453D/S456D/S462D)
Method: protein-binding microarray
Molecule type: double-stranded DNA, one strand shown
Sample: in vitro
Tested at: 250 nM
Setting: 60-bp whole probe
Together with: salmon DNA 0.4 mg/ml
Reference: random background probes
Reading: higher = stronger binding
Shared flanks, not repeated: GCCTAGCAC … GTCTTGATTCGCTTGACGCTGCTG
Strand	log fluorescence [z-score]
TGCTCTCCGGGGTCTGTGAGGGTGCTA	-0.102
TCAAGCATTACTTTAGGACTGTGCTAG	0.0574
GACGGACTGGGGAGTGGGGACGTGCTA	-0.397
TTTGGACTGGGTTTCGGTTAGTGCTAG	8.14
TTAGGTTTCGGGTTTCGGTCAGTGCTA	9.65
GACGGACTTCTTATCCTGACGTGCTAG	-0.241
TTAGAGATCAGACTGGATTAGTGCTAG	-0.243
GACGGTATACTACTGCTGACGTGCTAG	-0.134

Study 2
Target: Phosphate system positive regulatory protein PHO4, full length, GST-tagged (PHO4, Saccharomyces cerevisiae, UniProt P07270, residues 1-312)
Method: competition protein-binding microarray
Molecule type: double-stranded DNA, one strand shown
Sample: in vitro
Tested at: 2 µM
Setting: whole 60-bp probe, lowest competitor level
Together with: Cbf1 competitor, 0.05 µM
Reading: higher = stronger binding
Shared flanks, not repeated: … GTCTTGATTCGCTTGACGCTGCTG
Target sequence (chain): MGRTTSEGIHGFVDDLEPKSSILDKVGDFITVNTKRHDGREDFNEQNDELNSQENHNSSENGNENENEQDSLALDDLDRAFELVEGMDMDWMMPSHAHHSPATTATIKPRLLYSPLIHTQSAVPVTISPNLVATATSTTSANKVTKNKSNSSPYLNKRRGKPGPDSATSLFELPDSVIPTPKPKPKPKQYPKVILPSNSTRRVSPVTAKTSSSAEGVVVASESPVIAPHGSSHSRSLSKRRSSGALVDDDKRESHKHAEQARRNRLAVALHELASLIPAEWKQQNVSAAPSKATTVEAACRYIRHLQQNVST
Strand	fluorescence intensity
CATAACCTTGCCTGCCAAGTGTGGCAAGCAATGACG	5270 a.u.
CCAATTGATGGTCTACACGTTGTTTCAAGTGCATAC	11300 a.u.
CTACCATTATGCAAAAGCGTGCTAAGAAGAACGAAA	10400 a.u.
CTTTCCCGATCTTGCCGCGTGGGTGTAGCACATTTG	11900 a.u.
AAATTACTAAGTTGTCACTACACTTACCCCGTATGA	4060 a.u.
AAATCTGATTCTCACCACGTGCAAAAAAGATTGTAC	17000 a.u.
GTCTTGTCTCATTGCTCTGTGGGTGTCCCCACTTCA	4640 a.u.
AACAGATTCGGTGAGCTCGTGAGGTTTGAAGGCAGT	6740 a.u.

Study 3
Target: PABPC1L2, full length, GST fusion (mouse, UniProt A0ABA7IW68)
Method: RNAcompete
Molecule type: RNA
Sample: in vitro
Tested at: 20 nM
Setting: 7-mer, probes averaged, single round
Reference: mean of 7-mers
Reading: higher = stronger binding
Residues (chain): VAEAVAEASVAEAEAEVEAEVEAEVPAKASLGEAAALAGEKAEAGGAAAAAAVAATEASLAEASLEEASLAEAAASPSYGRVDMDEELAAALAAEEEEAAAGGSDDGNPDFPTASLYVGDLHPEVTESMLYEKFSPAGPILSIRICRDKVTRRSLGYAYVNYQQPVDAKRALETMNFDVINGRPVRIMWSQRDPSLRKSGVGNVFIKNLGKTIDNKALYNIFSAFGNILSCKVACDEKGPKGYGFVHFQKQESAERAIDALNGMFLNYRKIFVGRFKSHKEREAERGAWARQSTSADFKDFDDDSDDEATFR
Strand	7-mer Z-score
AGCCCAG	-0.122
GGAACAU	0.177
UGACUGA	-0.171
CAGGAAU	0.0261
UCAAGAC	-0.0047
UCGGGUC	-0.175
ACAAUGG	0.329
GCAGGGA	0.253

Further values, each from its own experiment
Parent: viral docking peptide; KGVKRKLFAEDSS
Variant	target	test	test system	setting	how to read	quantity	result
K4I	CCND2, cyclin fold, Cln2 fusion (human)	yeast growth competition, sequencing	yeast	weak parent motif	reference: not given, higher = stronger binding	normalised enrichment score	0.466

A few entries again (study 2):
Strand	fluorescence intensity
AACAGATTCGGTGAGCTCGTGAGGTTTGAAGGCAGT	6740 a.u.
CATAACCTTGCCTGCCAAGTGTGGCAAGCAATGACG	5270 a.u.
